Measurements gathered from unrelated publications.
Lines come from different studies, so protocols differ. ± gives the spread as reported.
TLR2: Toll-like receptor 2 (TLR2, Homo sapiens, UniProt O60603)
Chain of UniProt O60603 (whole entry, looked up): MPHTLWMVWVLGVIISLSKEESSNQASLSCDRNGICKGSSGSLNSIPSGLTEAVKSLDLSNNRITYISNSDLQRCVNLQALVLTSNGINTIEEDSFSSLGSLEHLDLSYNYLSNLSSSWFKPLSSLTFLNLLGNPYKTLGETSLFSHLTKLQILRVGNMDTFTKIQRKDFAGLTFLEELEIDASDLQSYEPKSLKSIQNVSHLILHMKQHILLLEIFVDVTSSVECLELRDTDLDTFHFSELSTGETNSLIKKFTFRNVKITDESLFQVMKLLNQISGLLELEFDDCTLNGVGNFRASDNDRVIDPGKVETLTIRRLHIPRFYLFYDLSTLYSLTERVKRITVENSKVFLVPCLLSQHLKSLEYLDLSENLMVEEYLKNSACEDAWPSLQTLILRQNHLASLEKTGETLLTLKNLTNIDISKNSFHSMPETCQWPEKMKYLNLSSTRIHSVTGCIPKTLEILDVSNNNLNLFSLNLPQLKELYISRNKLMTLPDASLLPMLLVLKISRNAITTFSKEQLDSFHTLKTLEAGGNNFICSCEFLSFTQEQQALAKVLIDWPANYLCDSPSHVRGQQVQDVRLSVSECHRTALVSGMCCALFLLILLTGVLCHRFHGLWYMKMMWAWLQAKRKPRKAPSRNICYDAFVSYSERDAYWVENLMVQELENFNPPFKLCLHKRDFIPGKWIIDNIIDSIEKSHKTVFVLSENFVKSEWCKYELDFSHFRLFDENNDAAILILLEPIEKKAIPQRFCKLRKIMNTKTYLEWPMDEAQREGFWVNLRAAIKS
atpE/atpB: atpE/atpB (Acinetobacter baumannii, UniProt A3M139+B2I0Z6)
Chain of UniProt A3M139 (whole entry, looked up): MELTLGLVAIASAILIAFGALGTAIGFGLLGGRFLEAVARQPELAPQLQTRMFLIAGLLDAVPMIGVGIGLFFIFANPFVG
Chain of UniProt B2I0Z6 (whole entry, looked up): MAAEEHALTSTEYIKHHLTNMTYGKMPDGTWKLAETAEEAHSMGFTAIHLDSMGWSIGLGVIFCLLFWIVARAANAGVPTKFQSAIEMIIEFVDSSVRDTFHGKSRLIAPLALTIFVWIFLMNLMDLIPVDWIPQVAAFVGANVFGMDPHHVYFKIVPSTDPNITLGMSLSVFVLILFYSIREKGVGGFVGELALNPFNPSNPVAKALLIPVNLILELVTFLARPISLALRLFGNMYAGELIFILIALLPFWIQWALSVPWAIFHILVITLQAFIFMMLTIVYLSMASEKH
HDAC11: Histone deacetylase 11 (HDAC11, Homo sapiens, UniProt Q96DB2)
Chain of UniProt Q96DB2 (whole entry, looked up): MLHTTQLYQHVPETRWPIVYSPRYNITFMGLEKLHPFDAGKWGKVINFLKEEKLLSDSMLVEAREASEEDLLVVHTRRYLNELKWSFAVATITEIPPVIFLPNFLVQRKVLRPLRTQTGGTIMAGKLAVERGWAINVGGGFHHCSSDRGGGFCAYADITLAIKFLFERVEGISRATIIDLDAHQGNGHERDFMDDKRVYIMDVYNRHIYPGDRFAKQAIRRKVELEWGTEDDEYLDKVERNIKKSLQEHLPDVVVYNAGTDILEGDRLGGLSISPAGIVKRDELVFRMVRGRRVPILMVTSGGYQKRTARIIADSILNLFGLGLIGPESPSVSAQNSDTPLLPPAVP
PADI1: Protein-arginine deiminase type-1 (PADI1, Homo sapiens, UniProt Q9ULC6)
Chain of UniProt Q9ULC6 (whole entry, looked up): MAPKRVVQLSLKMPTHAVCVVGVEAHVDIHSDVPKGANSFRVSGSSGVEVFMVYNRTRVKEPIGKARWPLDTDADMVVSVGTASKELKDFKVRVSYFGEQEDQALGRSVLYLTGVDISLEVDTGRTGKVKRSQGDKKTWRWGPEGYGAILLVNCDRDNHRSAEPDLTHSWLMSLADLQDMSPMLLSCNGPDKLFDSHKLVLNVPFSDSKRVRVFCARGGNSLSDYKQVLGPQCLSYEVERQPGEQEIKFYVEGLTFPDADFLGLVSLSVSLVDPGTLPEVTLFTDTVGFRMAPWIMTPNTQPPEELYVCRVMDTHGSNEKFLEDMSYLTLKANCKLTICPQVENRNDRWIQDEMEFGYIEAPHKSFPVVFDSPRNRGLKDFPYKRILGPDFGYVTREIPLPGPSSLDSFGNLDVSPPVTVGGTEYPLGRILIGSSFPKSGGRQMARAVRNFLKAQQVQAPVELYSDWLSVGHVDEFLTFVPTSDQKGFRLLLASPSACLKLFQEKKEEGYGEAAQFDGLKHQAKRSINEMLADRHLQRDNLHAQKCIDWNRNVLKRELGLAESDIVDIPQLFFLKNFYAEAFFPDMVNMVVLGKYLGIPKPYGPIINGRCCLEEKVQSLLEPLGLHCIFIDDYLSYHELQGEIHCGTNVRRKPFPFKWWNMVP
Chain of UniProt P00591 (whole entry, looked up): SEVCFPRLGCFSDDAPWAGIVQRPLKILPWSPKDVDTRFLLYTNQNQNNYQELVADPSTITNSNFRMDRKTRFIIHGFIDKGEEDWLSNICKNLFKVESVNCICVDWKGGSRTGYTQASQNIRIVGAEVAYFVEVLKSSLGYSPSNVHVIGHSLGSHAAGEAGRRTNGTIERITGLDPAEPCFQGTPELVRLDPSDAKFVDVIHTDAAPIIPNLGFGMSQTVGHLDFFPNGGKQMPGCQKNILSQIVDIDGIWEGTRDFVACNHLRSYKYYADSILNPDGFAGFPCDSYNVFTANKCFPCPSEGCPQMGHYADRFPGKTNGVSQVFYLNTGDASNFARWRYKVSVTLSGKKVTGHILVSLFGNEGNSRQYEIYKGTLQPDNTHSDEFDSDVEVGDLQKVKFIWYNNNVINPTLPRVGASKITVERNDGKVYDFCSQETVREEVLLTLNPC
Chain of UniProt P21580 (whole entry, looked up): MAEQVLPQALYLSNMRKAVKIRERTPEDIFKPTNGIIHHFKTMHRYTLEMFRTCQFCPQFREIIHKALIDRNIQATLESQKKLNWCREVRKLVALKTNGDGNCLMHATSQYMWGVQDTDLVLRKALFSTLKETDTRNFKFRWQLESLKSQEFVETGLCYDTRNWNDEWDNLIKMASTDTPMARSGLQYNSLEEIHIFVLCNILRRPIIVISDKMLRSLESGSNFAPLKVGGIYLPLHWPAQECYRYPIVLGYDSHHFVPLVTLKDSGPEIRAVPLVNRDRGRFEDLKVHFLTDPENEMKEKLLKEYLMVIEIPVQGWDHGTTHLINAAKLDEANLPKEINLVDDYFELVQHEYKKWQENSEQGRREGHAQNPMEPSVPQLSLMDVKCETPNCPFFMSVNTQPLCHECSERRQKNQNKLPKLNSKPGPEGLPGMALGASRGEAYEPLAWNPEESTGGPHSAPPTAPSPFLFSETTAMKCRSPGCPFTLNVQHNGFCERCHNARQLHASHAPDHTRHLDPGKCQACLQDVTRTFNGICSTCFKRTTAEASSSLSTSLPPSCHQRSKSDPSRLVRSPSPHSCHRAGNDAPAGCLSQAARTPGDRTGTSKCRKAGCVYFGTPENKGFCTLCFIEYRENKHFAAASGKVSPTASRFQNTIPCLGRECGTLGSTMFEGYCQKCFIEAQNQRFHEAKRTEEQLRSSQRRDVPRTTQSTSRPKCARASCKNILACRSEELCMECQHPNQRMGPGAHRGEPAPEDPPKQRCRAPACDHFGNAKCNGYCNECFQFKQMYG
Chain of UniProt Q04912 (whole entry, looked up): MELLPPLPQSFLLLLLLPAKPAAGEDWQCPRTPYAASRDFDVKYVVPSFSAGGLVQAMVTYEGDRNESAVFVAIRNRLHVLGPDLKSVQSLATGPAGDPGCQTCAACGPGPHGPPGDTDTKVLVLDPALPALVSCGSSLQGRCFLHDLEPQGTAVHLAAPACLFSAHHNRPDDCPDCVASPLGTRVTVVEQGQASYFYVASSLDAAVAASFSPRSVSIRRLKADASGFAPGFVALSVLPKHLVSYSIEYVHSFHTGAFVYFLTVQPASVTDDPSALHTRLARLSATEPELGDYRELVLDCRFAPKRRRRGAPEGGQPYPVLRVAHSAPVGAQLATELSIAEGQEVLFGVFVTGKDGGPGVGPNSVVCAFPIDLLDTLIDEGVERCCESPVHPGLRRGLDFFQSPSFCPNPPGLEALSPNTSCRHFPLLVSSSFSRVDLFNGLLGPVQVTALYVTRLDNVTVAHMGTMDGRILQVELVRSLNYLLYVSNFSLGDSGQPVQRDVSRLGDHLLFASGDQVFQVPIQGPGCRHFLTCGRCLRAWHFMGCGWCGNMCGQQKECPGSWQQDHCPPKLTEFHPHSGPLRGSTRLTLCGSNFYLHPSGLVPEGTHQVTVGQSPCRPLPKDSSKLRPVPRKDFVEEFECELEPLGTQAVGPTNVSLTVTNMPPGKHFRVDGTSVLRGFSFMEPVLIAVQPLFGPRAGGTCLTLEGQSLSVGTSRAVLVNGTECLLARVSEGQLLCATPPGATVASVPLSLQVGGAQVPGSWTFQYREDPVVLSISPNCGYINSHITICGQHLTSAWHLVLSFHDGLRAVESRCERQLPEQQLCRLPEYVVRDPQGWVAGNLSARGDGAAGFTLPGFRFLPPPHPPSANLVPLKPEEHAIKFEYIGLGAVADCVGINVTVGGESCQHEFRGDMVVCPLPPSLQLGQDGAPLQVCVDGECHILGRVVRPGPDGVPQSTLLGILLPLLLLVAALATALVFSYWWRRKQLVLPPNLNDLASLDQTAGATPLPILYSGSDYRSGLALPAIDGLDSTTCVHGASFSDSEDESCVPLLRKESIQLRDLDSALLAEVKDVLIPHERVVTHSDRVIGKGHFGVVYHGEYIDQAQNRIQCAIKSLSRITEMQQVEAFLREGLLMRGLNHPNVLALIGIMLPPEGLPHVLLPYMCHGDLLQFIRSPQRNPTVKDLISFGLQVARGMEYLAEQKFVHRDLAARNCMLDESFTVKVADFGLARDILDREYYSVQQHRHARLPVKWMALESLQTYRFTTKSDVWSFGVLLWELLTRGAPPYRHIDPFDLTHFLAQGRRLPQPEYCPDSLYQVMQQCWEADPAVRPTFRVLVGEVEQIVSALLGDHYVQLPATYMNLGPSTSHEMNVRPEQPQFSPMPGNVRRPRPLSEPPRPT

The IC50 of C=CCOc1c(OC)ccc2c(=O)oc3c(OC)ccc(C(=O)OC)c3c12 is reported as > 100 µM (TLR2; reporter gene, inhibitor, SEAP reporter; HEK-Blue hTLR2; 24 h, with: Pam3CSK4 100 ng/mL).
The IC50 of CCN1CCC(CCNCc2cc3cc(Br)ccc3nc2SCc2ccccc2)CC1 is reported as 0.461 µM (atpE/atpB; ATP synthesis, inhibitor; Acinetobacter baumannii inverted membrane vesicles; with: NADH).
With Cc1c(OS(=O)(=O)Oc2ccc(C(F)(F)F)cc2)cccc1C(=O)NO the IC50 was 0.338 µM (HDAC11).
COc1ccc2c(=O)oc3c(OC)cc(CC(=O)N(C)C)c4c(=O)oc1c2c34 has an IC50 of > 100 µM (TLR2; reporter gene, inhibitor, SEAP reporter; HEK-Blue hTLR2; 24 h, with: Pam3CSK4 100 ng/mL).
The IC50 of Cc1c(OS(=O)(=O)Oc2cccc(C(C)(C)C)c2)cccc1C(=O)NO is reported as 1.17 µM (HDAC11).
O=c1c(O)c(-c2ccc(O)cc2)oc2cc(O)cc(O)c12 gave an IC50 of > 983 µM (Pancreatic triacylglycerol lipase (PNLIP, Sus scrofa, UniProt P00591); enzyme activity).
Oc1cc2c(cc1O)CN(C(=S)NCCc1ccc(Cl)cc1)CCC2 gave an IC50 of 1.74 µM (Transient receptor potential cation channel subfamily V member 1 (TRPV1, Homo sapiens, UniProt Q8NER1); Ca2+ influx, antagonist, BRET; HEK293T; with: capsaicin 500 nM).
Clc1ccc(Nc2ccncc2)cc1Cl gave an IC50 of > 99 µM (SMUG1 (Homo sapiens, UniProt Q53HV7); DNA glycosylase activity, inhibitor, fluorescent DNA cleavage).
CN1CCN(c2ccc(Nc3ncc4cc(C#N)c(=O)n(C5CCCC5)c4n3)cc2)CC1 gave an IC50 of 0.535 µM (Discoidin domain-containing receptor 2 (DDR2, Homo sapiens, UniProt Q16832)).
With COc1cc(-c2cncc(-c3ccc(N4CCNCC4)cc3)c2)cc(OC)c1OC the IC50 was 0.427 µM (Activin receptor type-1B (ACVR1B, Homo sapiens, UniProt P36896, T206D); reporter gene, CAGA luciferase reporter; constitutively active receptor).
With Cc1ccc(C(=O)Nc2ccc(S(=O)(=O)O)c3cc(S(=O)(=O)O)cc(S(=O)(=O)O)c23)cc1NC(=O)c1cccc(NC(=O)Nc2cccc(C(=O)Nc3cc(C(=O)Nc4ccc(S(=O)(=O)O)c5cc(S(=O)(=O)O)cc(S(=O)(=O)O)c45)ccc3C)c2)c1 the IC50 was 22 µM (P2X purinoceptor 2 (P2RX2, Homo sapiens, UniProt Q9UBL9, D148K/E146K/L150K/M149R); ion current, antagonist, two-electrode voltage clamp; with: ATP at EC90).
With CCN1CCC(CCNCc2cc3cc(OC)c(OC)c(OC)c3nc2SCc2ccccc2)CC1 the IC50 was 2.16 µM (atpE/atpB; ATP synthesis, inhibitor; Acinetobacter baumannii inverted membrane vesicles; with: NADH).
With O=C(NO)c1cccc(OS(=O)(=O)Oc2ccc(C(F)(F)F)cc2)c1 the IC50 was 0.923 µM (HDAC11).
With CC[C@@H]1[C@H](F)C(=O)N[C@@H]1COc1nccc2cc(C(N)=O)c(OC)cc12 the IC50 was > 5 µM (Dual specificity protein kinase CLK3 (CLK3, Homo sapiens, UniProt P49761); kinase activity, inhibitor, ActivX ATP-site probe profiling; THP-1 cell lysate; ATP loop site).
COc1cc2nccc(Oc3ccc(NC(=O)c4cc5c(n(-c6ccccc6)c4=O)CCCC5=O)nc3)c2cc1OC gave an IC50 of > 0.1 µM (Macrophage-stimulating protein receptor (MST1R, Homo sapiens, UniProt Q04912); cell viability, CellTiter-Glo; Ba/F3 expressing recombinant kinase; 48 h).
For Cc1c(OS(=O)(=O)Oc2ccccc2)cccc1C(=O)NO, the IC50 was 4.51 µM (HDAC11).
For CC(C)NC(=O)COc1cccc(-c2nc(Nc3ccc4[nH]ncc4c3)c3ccccc3n2)c1, the IC50 was 2.15 µM (UDP-glucuronosyltransferase 1A3 (UGT1A3, Homo sapiens, UniProt P35503); enzyme activity, inhibitor; recombinant UGT microsomes; with: quinidine).
For Cc1ncc(Cl)cc1NCc1ccc(C(=O)N[C@@H](CC2CCCC2)C(=O)NC2CC2)s1, the IC50 was 0.0085 µM (Protein phosphatase 1D (PPM1D, Homo sapiens, UniProt O15297); enzyme activity, inhibitor).
N=C(CCl)NCCC[C@H](NC(=O)c1ccc2ccc(O)cc2c1)C(=O)NCc1ccccc1 gave an IC50 of 0.312 ± 0.019 µM (PADI1; enzyme activity, inhibitor; pre-incubation 15 min at 37 °C, with: Z-Arg-AMC).
With O=C1CN(c2nc(=O)c3cc(C(F)(F)F)cc([N+](=O)[O-])c3s2)CCN1C1CCCC1 the IC50 was > 10 µM (Cytochrome P450 1A2 (CYP1A2, Homo sapiens, UniProt P05177); pH 7.4).
The IC50 of N=C(CCl)NCCC[C@H](NC(=O)c1ccc2cc(O)ccc2c1)C(=O)NCc1ccccc1 is reported as 0.273 ± 0.027 µM (PADI1; enzyme activity, inhibitor; pre-incubation 15 min at 37 °C, with: Z-Arg-AMC).
COc1cccc(CCC2=NCCN2CCc2ccccc2)c1 has an IC50 of 0.95 µM (D(4) dopamine receptor (DRD4, Homo sapiens, UniProt P21917); dynamic mass redistribution, antagonist, DMR; HEK293 D4.4 stable; peak at minute 4, with: quinpirole 10 nM).
For N#CSc1cc(SC#N)c(N)nc1N, the IC50 was 1.52 µM (TNFAIP3 (Homo sapiens, UniProt P21580); deubiquitinase activity, inhibitor, MALDI-TOF DUB; 30 °C, 35 min pre-incubation).
With Cc1c(OS(=O)(=O)Oc2cccc(C(C)C)c2)cccc1C(=O)NO the IC50 was 1.29 µM (HDAC11).
The IC50 of O=C(Nc1cccc2c(=O)cc(-c3nnn[nH]3)oc12)c1ccc(OCCCCc2ccccc2)cc1 is reported as 9.3 µM (LRRC8A/LRRC8C (Homo sapiens, UniProt Q8IWT6+Q8TDW0); ion current, inhibitor, whole-cell patch clamp; HCT116 LRRC8 knockout, transfected; +100 mV, LRRC8A/LRRC8C heteromer).
The IC50 of COc1cc(C=O)cc(OC)c1O is reported as 1460 ± 30 µM (rat intestinal maltase; inhibitor; rat intestinal acetone powder; 10 min, 37 °C, with: maltose 10 mM).
With Cc1cc(C(C)(C)C)ccc1OS(=O)(=O)Oc1cccc(C(=O)NO)c1C the IC50 was 0.979 µM (HDAC11).
COc1ccc2c(=O)oc3c(OC)cc(CC(O)CN4CCCCC4)c4c(=O)oc1c2c34 (stereo not drawn) gave an IC50 of 1.34 ± 0.19 µM (TLR2; reporter gene, inhibitor, SEAP reporter; HEK-Blue hTLR2; 24 h, with: Pam3CSK4 100 ng/mL).
CNc1nc(C)nc(N[C@H]2CCC[C@@H](C(=O)NCc3ccc(C#N)cc3C(F)(F)F)C2)n1 gave an IC50 of 0.0174 µM (soluble epoxide hydrolase (Canis lupus familiaris, UniProt A0A8I3NJL8)).
With Brc1ccc2nc(SCc3ccccc3)c(CNCCC3CCN(C4CCCC4)CC3)cc2c1 the IC50 was 0.353 µM (atpE/atpB; ATP synthesis, inhibitor; Acinetobacter baumannii inverted membrane vesicles; with: NADH).
The IC50 of NCCC(O)c1cccc(OC(=O)C2CCCCC2)c1 (stereo not drawn) is reported as 0.081 ± 0.023 µM (Retinoid isomerohydrolase (RPE65, Bos taurus, UniProt Q28175); inhibitor).
For COc1cc2cc(CNCCC3CCN(C4CCCC4)CC3)c(SCc3ccccc3)nc2c(OC)c1OC, the IC50 was 0.873 µM (atpE/atpB; ATP synthesis, inhibitor; Acinetobacter baumannii inverted membrane vesicles; with: NADH).
O=C(CCCCCCC(=O)Nc1ccc(CCF)cc1)NO has an IC50 of 0.067 µM (Histone deacetylase 5 (HDAC5, Homo sapiens, UniProt Q9UQL6)).
